Results pooled from the literature.
A part holds a random share of what one study measured. Changes are numbered by the printed parent chain.

Sample 1 — technique: RNA Bind-n-Seq; form: RNA; sample: in vitro; concentration: 1 µM; setting: whole 134-nt RNA, ends assumed; together with: 150 mM KCl; relative to: input library; direction: higher = stronger binding; endpoint: log2 enrichment
Target: Ras GTPase-activating protein-binding protein 1, RRM domain (G3BP1, Homo sapiens, UniProt Q13283)
UniProt Q13283, sequence (whole entry, looked up): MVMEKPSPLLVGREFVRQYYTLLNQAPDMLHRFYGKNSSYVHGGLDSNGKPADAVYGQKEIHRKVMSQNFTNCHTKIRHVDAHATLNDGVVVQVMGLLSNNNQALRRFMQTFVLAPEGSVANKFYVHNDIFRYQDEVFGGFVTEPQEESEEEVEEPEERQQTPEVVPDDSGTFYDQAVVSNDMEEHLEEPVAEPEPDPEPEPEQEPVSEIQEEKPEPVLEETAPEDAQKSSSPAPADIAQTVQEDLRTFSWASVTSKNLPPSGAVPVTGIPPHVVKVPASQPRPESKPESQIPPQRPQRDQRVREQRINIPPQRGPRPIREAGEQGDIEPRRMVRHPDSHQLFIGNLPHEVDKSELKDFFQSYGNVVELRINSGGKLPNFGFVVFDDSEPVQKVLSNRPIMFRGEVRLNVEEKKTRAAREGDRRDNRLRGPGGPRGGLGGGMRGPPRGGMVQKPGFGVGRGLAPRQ
All sequences stand within: GGGAGUUCUACAGUCCGACGAUC … UGGAAUUCUCGGGUGUCAAGG
CACAGACAACACGCACCCACACAGACACAGAGGGAAGGGGUUGGGAAAAGGACAGGGUGCACAGCAGGGCGGGGUAGGACCCCAGCCCCU: -0.0348
CCUGUGCUACACAUCGUAUGUACCGAAUCGGGUUUUUUUGGGUUUUUUUGGUUUUUUUGGGAAAGUAUUAUGUUACGCCGUUCGGAUCUG: -0.249
CUCAAGUCCUGUGCUACACAUCGUAUGUACCGAAUCGGGAAGGGAAGGGAAGGAAAGUAUUAUGUUACGCCGUUCGGAUCUGCACUUCCA: -0.283
GUCCUGUGCUACACAUCGUAUGUACCGAAUCGGGGAAAAGGGGAAAAGGGGAAAAGGGGAAAGUAUUAUGUUACGCCGUUCGGAUCUGCA: 1.38
ACCAUGCCGGUGGGCAUCUUUGGGAAGUGGGGCAAGGGGGGGAUAGGGAGGGGGGUAACACUUUGGGAACAGGUGGUCCCAGGUCGUUUC: -0.369

Sample 2 — technique: RNA Bind-n-Seq; form: RNA; sample: in vitro; concentration: 365 nM; relative to: no-protein control; direction: higher = stronger binding; endpoint: RBNS enrichment (R)
Target: RNA binding protein fox-1 homolog 2, RRM domain, GST-SBP tag (RBFOX2, Homo sapiens, UniProt O43251-10, residues 100-194)
Setting: natural RNA segment, single round, ends assumed
All sequences stand within: GGGAGUUCUACAGUCCGACGAUC … UGGAAUUCUCGGGUGCCAA
Residues (chain): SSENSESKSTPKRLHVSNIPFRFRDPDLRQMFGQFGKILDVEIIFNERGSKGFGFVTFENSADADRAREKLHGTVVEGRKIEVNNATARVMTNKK
GAGGGAAAUCUUUAUAUUCUGUAUAAAAACAAAAUCAAAUUUAUAUACUAAAAUCAUUUGUCUAAAAUUUAAGUUGUUUUCAAAUAAAAGUUGAAAUGCAUUCCUGUGUG: 1.33
AACUGAAUGAAAACCUGUCAUGCGGGAUUAUUUUUGAAAAGCCUCCAUUUGUAUACAUUUGCCCAAACAUAGCAACUAUUGUACAGUUUUUCAUUGUAUCAAAUACUUUU: 0.489
ACCAGUGAGAGCCCCAAUCCCUGCAGUUUUGUGGCUUCAAGUGUGGGUGGACAGUCCUAAUGGGGAUCUCCAGCUCCUUCCUGUGGGCUGCCACAGACAGCUACCCCCAG: 0.321
UUGUUUAUUAGAUACAUCACUGCUUUAUGAAGCAAGGAAGAUAUACAUGAAAAAAUUUAAAUACAUAUCGCUGACUCCAUUGAAUGGACAUCCUGUAUAAGCACUGAGAA: 0.294
CCUUUUUAAAGUUUAAUUUUAUAGCUGGCUCCACAUCAAAGUGAGGGCCUCAUAUGUUAGAUCACCUUGGGUGGCAAACACCCCAGUUCCCACGCAGUUGAGUGUCAUCA: 0.698
GUUAUAAUGAAUGCUUCUAUUUAAAAGGGAAAUAUUUCUACAUGUGCAUAUAGUUUUCCAAGAGUGUACCAUUAACUUGAUUGUUGAUAAUAAAAACAAAAAGCAAGUCU: 1.16
GCAUCUCCAUGCCCCUAUAAAGCGUGCCUGGGGCUUGUCUGGGGCUGGGGAGGAAUAAACCAUGUAUAUAAAAGAGUUUCAGGCUGAGCCUGCUUCUGUUCGGUUGUCUG: 1.53
AUAAAUGAUAAAAGUAAAUGUAAUGGAAUCUUUUAAUUAGGCUAAGAUAUGCUAUUUCAUAACUUAUGUAGAAUGAUUUUUAUCUAUAUACUUUGUCCAUAAAAUUAUAA: 0.664

Sample 3 — target: CCNA2, cyclin fold, Cln2 fusion (human); technique: yeast growth competition, sequencing; sample: yeast; setting: strong parent motif; relative to: not given; direction: higher = stronger binding; endpoint: normalised enrichment score
Starting sequence: GMNC docking peptide (human); KNAKRNLSSEFAN
KNAKVNLSSEFAN [R5V]: 0.129
KRAKRNLSSEFAN [N2R]: 6
KNAKRNLSSESAN [F11S]: 0.486
KNAKRNLSSEYAN [F11Y]: 2.82

Further values, each from its own experiment
PhoQ, residues 284 288 289 292 302 303 SSTMSV  fold induction (PhoP, residues 12 14 15 18 19 IFFTR (Escherichia coli, UniProt P23836); Sort-seq, refers to: YFP reporter; E. coli; PhoQ-PhoP variant library, together with: 10 µM Mg2+; relative to: high Mg2+ state, higher = stronger signaling): 14.9
